Published values gathered from unrelated publications.
Compare with care: the assays were run in different laboratories. Values joined by “and” are separate records of one study, mostly repeats; a detail may differ. ± marks the error that the study gave.

CN(C)C(=O)c1cc2cnc(Nc3ccc(N4CCNCC4)cn3)nc2n1C1CCCC1
normalized enrichment score (RNA-seq GSEA, measured: HALLMARK_P53_PATHWAY gene set; MB002 tumour; concentration not given; reference: vehicle, direction not given): -1.29

Cc1coc([C@H]2C[C@H]3[C@@H](CF)SC(N)=N[C@@]3(c3ccc(F)cc3F)CO2)n1
Aβ42 level (measured: Aβx-42; Mus musculus wild-type, brain; subcutaneous, 80 mg/kg, 7 h): 0.57 ng/g

N#Cc1ccc2c(-c3ccncc3)c(-c3ccc(F)cc3)nn2c1
log2 fold change (kinase binding, competitor, MIB/MS competition, measured: CEK1; Candida albicans cell lysate; 100 nM; reference: DMSO): -0.271

Cn1cc(Nc2nc(N)nc(-c3cccc(-n4ccc5cc(C6CC6)cc(F)c5c4=O)c3CO)n2)cn1
inhibition (CD63 upregulation, measured: CD63; basophils (CD123+ HLA-DR-), healthy humans, whole blood ex vivo; 300 mg twice daily (multiple dose), 336 h, with: anti-IgE): 90.1%

Cc1noc(C)c1-c1cc(C(O)(c2ccccn2)c2ccccn2)c2nc(C3CC3)[nH]c2c1
maximum inhibition (measured: CCR2 expression; human, peripheral blood; 3 mg, day 1, negative means increased expression): -8%

N=C(N)NCCC[C@H](NC(=O)[C@H](CCCNC(=N)N)NC(=O)[C@H](CCCCN)NC(=O)[C@H](CCC(N)=O)NC(=O)[C@H](CCCCN)NC(=O)[C@H](Cc1ccc(O)cc1)NC(=O)[C@@H](N)CCCCN)C(=O)N[C@@H](CO)C(=O)N[C@@H](Cc1ccc(O)cc1)C(=O)N[C@@H](CCCCN)C(=O)O
change from baseline in VAS score (human, dentin hypersensitivity patients, male; topical to tooth, 10 µg/tooth, day 36, phase trial; direction not given): -27.8 ± 21.2

C[C@@H](Nc1cc(F)cc(F)c1)c1cc(C(=O)N(C)C)cc2c(=O)cc(N3CCOCC3)oc12
change in membranous pAKT H-score (immunohistochemistry, measured: pAKT Ser473; human, tumour biopsy; 120 mg twice daily continuous, day 13, 312 h post-dose; reference: baseline, direction not given): -100%

CN[C@@H]1COc2c(S(=O)(=O)NC(=O)Nc3c4c(cc5c3CCC5)CCC4)cnn2C1
inhibition (measured: IL-1β; human participants, whole blood ex vivo; 1800 mg single dose, 48 h, with: LPS/ATP; reference: baseline): 72.1%

Cc1cc(F)cc2c(CCC(=O)N[C@@H]3C(=O)NC[C@H]3O)c(-c3ccc(F)cc3)[nH]c12
urine albumin/creatinine ratio (APOL1 G2 mice, IFNγ-induced; 30 mg/kg twice daily, day 8): 613 µg/mg and 444 µg/mg and 8090 µg/mg and 2180 µg/mg and 823 µg/mg and 458 µg/mg

CN[C@@H](C)C(=O)N[C@H]1CN(S(=O)(=O)c2cccc(S(=O)(=O)N3CC[C@H]4CC[C@@H](C(=O)NC(c5ccccc5)c5ccccc5)N4C(=O)[C@@H](NC(=O)[C@H](C)NC)C3)c2)CC[C@H]2CC[C@@H](C(=O)NC(c3ccccc3)c3ccccc3)N2C1=O
overall response rate (RECIST 1.1; advanced pancreatic cancer patients; dose not given, efficacy-evaluable, with: AG): 20%

CCCn1cc(C)c2c(=O)[nH]c(-c3cc(S(=O)(=O)N4CCN(CC)CC4)ccc3OCC)nc21
change in DBP AUEC(0-4 h) (supine; concentration not given, 0 to 4 h; reference: baseline): -12.7 ± 13.5 mmHg·h

CC[C@@H](C)[C@@H](NC(=O)[C@@H](Cc1ccc(O)cc1)NC(=O)[C@H]1CCCN1C(=O)[C@@H](CCCNC(=N)N)NC(=O)[C@H](N)Cc1c[nH]cn1)C(=O)N[C@H](C)C(=O)N[C@H](Cc1c[nH]cn1)C(=O)N[C@H](CCCNC(=N)N)C(=O)N[C@@H](C(=O)N[C@H](Cc1ccc(O)cc1)C(=O)N[C@H](CO)C(=O)N[C@H](Cc1ccccc1)C(N)=O)C(C)C
IFN-γ+ CD8+ T cell frequency (ex vivo flow cytometry; GL261-Luc brain tumour mice, cervical lymph node; dose not given): 3.2% and 4.07% and 4.04% and 4.72%

CC1(C)CCC(c2ccc(Cl)cc2)=C(CN2CCN(c3ccc(C(=O)NS(=O)(=O)c4ccc(N[C@H](CCN5CCOCC5)CSc5ccccc5)c(S(=O)(=O)C(F)(F)F)c4)cc3)CC2)C1
EC50 (cell killing; canine lymph node CD3+ T cells, dog 39; 24 h): 142 nM

COc1ncc(-c2nc3c(n2C(C)C)[C@H](c2ccc(Cl)cc2)N(c2cc(Cl)cn(C)c2=O)C3=O)c(OC)n1
best overall response (International Working Group criteria; human acute myeloid leukemia patients; oral, 45 mg, response CRi, low-dose, recommended dose for expansion): 14.8%

C[C@H]1O[C@@H](O[C@H]2CC[C@@]3(C)[C@@H](CC[C@]4(C)[C@@H]3C=C[C@]35OC[C@@]6(CCC(C)(C)C[C@H]63)[C@@H](O)C[C@]54C)[C@]2(C)CO)[C@H](O)[C@@H](O[C@@H]2O[C@H](CO)[C@@H](O)[C@H](O)[C@H]2O)[C@H]1O
liver index (chronic-plus-binge ethanol-fed mice; oral, 10 mg/kg/day, 7 d; reference: body weight): 3.56% and 3.83% and 4.02% and 4.59% and 4.41% and 4.35%

NCC(=O)Nc1cncc(-c2nn3c(=O)cc(N4CCNCC4)nc3s2)c1
inhibition of platelet aggregation (ADP-induced platelet aggregation, light transmission aggregometry; human stable CAD patients on aspirin, platelets ex vivo; 0.04 mg/kg, 15 min post dose, with: 20 µM ADP; reference: placebo difference): 46.3%

C=CC[C@@H]1/C=C(\C)C[C@H](C)C[C@H](OC)[C@H]2O[C@@](O)(C(=O)C(=O)N3CCCC[C@H]3C(=O)O[C@H](/C(C)=C/[C@@H]3CC[C@@H](O)[C@H](OC)C3)[C@H](C)[C@@H](O)CC1=O)[C@H](C)C[C@@H]2OC
Banff v score (rhesus monkey kidney transplant, kidney allograft; dose not given; direction not given): 0

Cc1cc([C@H]2C[C@H]3[C@@H](CF)SC(N)=N[C@@]3(c3ccc(F)cc3F)CO2)on1
Aβ42 level (measured: Aβx-42; Mus musculus wild-type, brain; subcutaneous, 30 mg/kg, 1 h): 0.45 ng/g

CCOCc1nc(O)c(-c2nnc(Cc3ccc(Cl)cn3)o2)c(O)c1-c1c(OC)cccc1OC
dP/dtmax change (instrumented anaesthetised rat; intravenous infusion, 1 µg/kg/min for 15 min, 15 min; reference: baseline): 8.8 ± 0.8%

COc1ccc(F)cc1C(=O)NCc1ccc(-c2nn([C@@H](C)C(F)(F)F)c(N)c2C(N)=O)cc1
overall response rate (CLL/SLL patients; dose not given, prior chemo, CD20, BTK agents): 67%

C=CCn1c(=O)c2cnc(Nc3ccc(N4CCN(C)CC4)cc3)nc2n1-c1ccc2c(n1)[C@@](O)(CC)CC2
tumour growth inhibition (Rh30 xenograft, BALB/c nude mice; oral, 80 mg/kg once daily x 21, day 18; reference: vehicle): 29.5%

C=C1CC[C@H](OCCCNC(=O)CCOCCOCCOCCOCCOCCOCCOCCOCCOCCOCCOCCOCCOCCOCCOCCOCCOCCOCCOCCOCCOCCOCCOCCOCCOCCOCCOCCOCCOCCOCCOCCOCCOCCOCCOCCOCCNC(=O)CCN2C(=O)CC(SC[C@H](NC(=O)[C@H](CCCNC(=N)N)NC(=O)[C@@H]3CCCN3C(=O)[C@H](CCC(N)=O)NC(=O)[C@H](CC(C)C)NC(=O)[C@H](CCCCN)NC(=O)[C@H](C)NC(=O)[C@@H]3CCCN3C(=O)[C@@H]3CCCN3C(=O)[C@H](CCCCN)NC(=O)[C@H](CCCCN)NC(=O)[C@H](CO)NC(=O)[C@H](CCC(=O)O)NC(=O)[C@H](CCCCN)NC(=O)[C@H](CCCNC(=N)N)NC(=O)[C@H](CCC(N)=O)NC(=O)[C@H](CCC(N)=O)NC(=O)[C@@H](NC(=O)[C@H](CCCNC(=N)N)NC(=O)[C@H](CCC(N)=O)NC(=O)[C@H](Cc3c[nH]cn3)NC(=O)[C@H](CCC(=O)O)NC(=O)[C@@H]3CCCN3C(=O)[C@H](CO)NC(=O)[C@H](CC(C)C)NC(=O)[C@H](Cc3ccccc3)NC(=O)[C@H](CNC(=O)CCCCCCC)NC(=O)[C@H](CO)NC(=O)CN)C(C)C)C(=O)O)C2=O)C/C1=C/C=C1\CCC[C@]2(C)[C@@H]([C@H](C)CCCC(C)(C)O)CC[C@@H]12 (stereo partly shown)
mRNA level (real-time RT-PCR, measured: Bnip3; mice, LLC tumour-bearing, gastrocnemius/plantaris muscle; daily or every other day; reference: tumour-bearing vehicle): decreased

O=C(O)CNC(=O)Cc1ccccc1
sarcomere length (ventricular cardiomyocytes, C57BL/6 mouse; dose not given, 0.676 s): 1.72 µm

C[C@@H](NC(=O)N1C(=O)[C@H](Cc2ccnc(N)c2)[C@H]1C(=O)O)C1CCCCC1
time to maximum PT over baseline (human, plasma; continuous intravenous infusion, 2.25 mg/kg/h, days 1 to 6 of 5-day infusion, median; reference: baseline): 5 h

CC#CC(=O)N[C@H]1CCCN(c2c(F)cc(C(N)=O)c3[nH]c(C)c(C)c23)C1
change from baseline in serum IgM (healthy volunteers, multiple ascending dose, serum; 3 mg once daily, day 21): -5.3%

CSc1ccc(C(=O)/C=C/c2cc(C)c(OC(C)(C)C(=O)O)c(C)c2)cc1
mRNA level (RT-PCR, measured: ACADL, CPT1α; db/db mice, MCD diet-fed, liver; 30 mg/kg; reference: model group): no effect

FC(F)(F)Oc1cccc(-c2cnc3ccc(-c4ccncc4)nn23)c1
tumour bioluminescence (bioluminescence imaging; mouse, MDA-MB-231-Luc xenograft; 10 mg/kg, day 14): 1.85e+10 photons/s and 5.24e+10 photons/s and 2.9e+10 photons/s and 2.75e+10 photons/s and 5.32e+10 photons/s and 2.42e+10 photons/s

c1ccc(-c2n[nH]cc2-c2ccnc3ccccc23)nc1
log2 fold change (kinase binding, competitor, MIB/MS competition, measured: YAK1; Candida albicans cell lysate; 1 µM; reference: DMSO): 1.26

Some of these lines once more:
Cc1coc([C@H]2C[C@H]3[C@@H](CF)SC(N)=N[C@@]3(c3ccc(F)cc3F)CO2)n1
Aβ42 level (measured: Aβx-42; Mus musculus wild-type, brain; subcutaneous, 80 mg/kg, 7 h): 0.57 ng/g

C[C@H]1O[C@@H](O[C@H]2CC[C@@]3(C)[C@@H](CC[C@]4(C)[C@@H]3C=C[C@]35OC[C@@]6(CCC(C)(C)C[C@H]63)[C@@H](O)C[C@]54C)[C@]2(C)CO)[C@H](O)[C@@H](O[C@@H]2O[C@H](CO)[C@@H](O)[C@H](O)[C@H]2O)[C@H]1O
liver index (chronic-plus-binge ethanol-fed mice; oral, 10 mg/kg/day, 7 d; reference: body weight): 3.56% and 3.83% and 4.02% and 4.59% and 4.41% and 4.35%

CSc1ccc(C(=O)/C=C/c2cc(C)c(OC(C)(C)C(=O)O)c(C)c2)cc1
mRNA level (RT-PCR, measured: ACADL, CPT1α; db/db mice, MCD diet-fed, liver; 30 mg/kg; reference: model group): no effect

CC[C@@H](C)[C@@H](NC(=O)[C@@H](Cc1ccc(O)cc1)NC(=O)[C@H]1CCCN1C(=O)[C@@H](CCCNC(=N)N)NC(=O)[C@H](N)Cc1c[nH]cn1)C(=O)N[C@H](C)C(=O)N[C@H](Cc1c[nH]cn1)C(=O)N[C@H](CCCNC(=N)N)C(=O)N[C@@H](C(=O)N[C@H](Cc1ccc(O)cc1)C(=O)N[C@H](CO)C(=O)N[C@H](Cc1ccccc1)C(N)=O)C(C)C
IFN-γ+ CD8+ T cell frequency (ex vivo flow cytometry; GL261-Luc brain tumour mice, cervical lymph node; dose not given): 3.2% and 4.07% and 4.04% and 4.72%
